Experimental data of several laboratories.
Protocols differ between the studies behind these lines. ± marks the error that the study gave.

SMILES | test | system | setting | tissue uptake
CC(C)C[C@@H](NC(=O)[C@@H](CCCNC(=N)N)NC(=O)[C@@H](Cc1c[nH]cn1)NC(=O)[C@@H](Cc1c[nH]c2ccccc12)NC(=O)[C@@H](Cc1c[nH]cn1)NC(=O)[C@@H](Cc1ccccc1)NC(=O)[C@H](NC(=O)[C@@H](Cc1ccc(O)cc1)NC(=O)CNC(=O)CNC(=O)CCOCCOCCOCCNC(=O)CN1CCN(CC(=O)O)CCN(CC(=O)O)CC1)[C@H](C)O)C(=O)N[C@H](CC(N)=O)C(=O)N1CCC[C@@H]1C(=O)O [gallium-68 labelled] | gamma counting | C57BL/6 mice, male, blood | intravenous, 1.85 MBq, 60 min | 0.9 ± 0.22 %ID/g
CC[C@H](C)[C@H](NC(=O)[C@H](CCCNC(=N)N)NC(=O)[C@H](CCCCN)NC(=O)[C@H](Cc1ccc(O)cc1)NC(=O)[C@H](CC(=O)O)NC(=O)[C@H](C)NC(=O)CNC(=O)CCOCCOCCOCCNC(=O)CN1CCN(CC(=O)O)CCN(CC(=O)O)CCN(CC(=O)O)CC1)C(=O)N[C@H](C(=O)N[C@@H](CC(C)C)C(=O)N[C@@H](CCCCN)C(=O)N[C@H](C(=O)N[C@@H](CC(N)=O)C(N)=O)C(C)C)[C@@H](C)O [copper-64 labelled] | ex vivo gamma counting | C57BL/6J male mice, B16-F10 tumour, testis | intravenous, 1.85 MBq, 40 min | 0.698 ± 0.059 %ID/g
O=C([O-])CNC(=O)CN1CCN(CC(=O)NCC(=O)[O-])CCN(CC(=O)NCC(=O)[O-])CCN(CC(=O)NCC(=O)[O-])CC1.[177Lu+3] |  | Sprague-Dawley rat, stomach | intravenous (tail vein), dose not given, 2 h | 0.014 ± 0.006 % injected dose/g
C[C@H](O)[C@@H](NC(=O)[C@H]1CCCN1C(=O)[C@@H](CCCCN)NC(=O)[C@@H](CO)NC(=O)[C@@H](Cc1ccc(O)cc1)NC(=O)[C@@H](CC(N)=O)NC(=O)CCOCCOCCOCCNC(=O)CN1CCN(CC(=O)O)CCN(CC(=O)O)CCN(CC(=O)O)CC1)C(=O)N[C@H](CC(=O)O)C(=O)N[C@H](CCCNC(=N)N)C(=O)N[C@H](CCC(N)=O)C(=O)N[C@H](Cc1ccc(O)cc1)C(=O)N[C@H](Cc1c[nH]cn1)C(=O)N[C@H](Cc1ccccc1)C(N)=O [copper-64 labelled] |  | C57BL/6J mice, stomach | intravenous, 1.85 MBq, 0.6667 h, radiolabelled | 1.07 ± 0.44 %ID/g
CSCC[C@H](NC(=O)CNC(=O)[C@H](CCCCN)NC(=O)[C@H](CC(C)C)NC(=O)[C@@H]1CCCN1C(=O)[C@H](CO)NC(=O)[C@H](Cc1c[nH]cn1)NC(=O)[C@H](Cc1c[nH]c2ccccc12)NC(=O)[C@H](CCCNC(=N)N)NC(=O)[C@H](CC(C)C)NC(=O)[C@H](CCCNC(=N)N)NC(=O)[C@H](Cc1c[nH]c2ccccc12)NC(=O)[C@H](CS)NC(=O)CCCCCNC(=O)CN1CCN(CC(=O)O)CCN(CC(=O)O)CCN(CC(=O)O)CC1)C(=O)O [copper-64 labelled] | ex vivo biodistribution | BALB/c nude mice, bone | intravenous, dose not given, 18 h, Huh-7 tumour-bearing | 0.81 %ID/g
CCCC[C@H]1C(=O)N(C)[C@@H](CCCC)C(=O)N[C@@H](CCCNC(=O)CN2CCN(CC(=O)O)CCN(CC(=O)O)CCN(CC(=O)O)CC2)C(=O)N[C@H](C(=O)NCC(N)=O)CSCC(=O)N[C@@H](Cc2ccc(O)cc2)C(=O)N(C)[C@@H](C)C(=O)N[C@@H](CC(N)=O)C(=O)N2CCC[C@H]2C(=O)N[C@@H](Cc2c[nH]cn2)C(=O)N[C@@H](CC(C)C)C(=O)N(C)CC(=O)N[C@@H](Cc2c[nH]c3ccccc23)C(=O)N[C@@H](CO)C(=O)N[C@@H](Cc2c[nH]c3ccccc23)C(=O)N1C [gallium-68 labelled] |  | NOD/SCID mice, CHO-hPD-L1 xenograft, heart | 60 min, PBS pretreatment | 2.95 ± 0.37 %ID/g
CN1Cc2cc(Cl)ccc2-n2c(nnc2C2CCN(c3cccc([18F])n3)CC2)C1 |  | C57BL/6 mouse male, blood | intravenous, 3.7 MBq, 60 min | 2.42 ± 0.43 %ID/g
CC[C@H](C)[C@H](NC(=O)[C@H](CCCCN)NC(=O)CNC(=O)[C@H](CC(C)C)NC(=O)[C@H](Cc1ccccc1)NC(=O)[C@H](CCCCN)NC(=O)[C@H](CO)NC(=O)[C@H](Cc1ccccc1)NC(=O)[C@H](Cc1c[nH]c2ccccc12)NC(=O)[C@H](CCC(N)=O)NC(=O)[C@@H](NC(=O)[C@H](Cc1ccccc1)NC(=O)CCCCCNC(=O)CN1CCN(CC(=O)O)CCN(CC(=O)O)CCN(CC(=O)O)CC1)C(C)C)C(=O)N[C@@H](CCC(=O)O)C(=O)N1CCC[C@H]1C(=O)N[C@@H](CC(=O)O)C(=O)N[C@H](C(=O)N[C@@H](CO)C(=O)N[C@@H](CCC(N)=O)C(=O)N[C@H](C(=O)N[C@@H](CCC(N)=O)C(=O)N[C@@H](CC(=O)O)C(=O)N1CCC[C@H]1C(=O)N[C@@H](CC(N)=O)C(=O)N[C@@H](CC(=O)O)C(=O)N[C@@H](CCC(N)=O)C(=O)N[C@@H](Cc1ccc(O)cc1)C(=O)N[C@@H](CCC(=O)O)C(=O)N1CCC[C@H]1C(=O)N[C@@H](Cc1ccccc1)C(=O)O)C(C)C)C(C)C [copper-64 labelled] |  | C57BL/6 mice, male, naive, white fat | 4 h | 0.3 ± 0.04 %ID/g

Repeated from above:
SMILES | test | system | setting | tissue uptake
CC[C@H](C)[C@H](NC(=O)[C@H](CCCCN)NC(=O)CNC(=O)[C@H](CC(C)C)NC(=O)[C@H](Cc1ccccc1)NC(=O)[C@H](CCCCN)NC(=O)[C@H](CO)NC(=O)[C@H](Cc1ccccc1)NC(=O)[C@H](Cc1c[nH]c2ccccc12)NC(=O)[C@H](CCC(N)=O)NC(=O)[C@@H](NC(=O)[C@H](Cc1ccccc1)NC(=O)CCCCCNC(=O)CN1CCN(CC(=O)O)CCN(CC(=O)O)CCN(CC(=O)O)CC1)C(C)C)C(=O)N[C@@H](CCC(=O)O)C(=O)N1CCC[C@H]1C(=O)N[C@@H](CC(=O)O)C(=O)N[C@H](C(=O)N[C@@H](CO)C(=O)N[C@@H](CCC(N)=O)C(=O)N[C@H](C(=O)N[C@@H](CCC(N)=O)C(=O)N[C@@H](CC(=O)O)C(=O)N1CCC[C@H]1C(=O)N[C@@H](CC(N)=O)C(=O)N[C@@H](CC(=O)O)C(=O)N[C@@H](CCC(N)=O)C(=O)N[C@@H](Cc1ccc(O)cc1)C(=O)N[C@@H](CCC(=O)O)C(=O)N1CCC[C@H]1C(=O)N[C@@H](Cc1ccccc1)C(=O)O)C(C)C)C(C)C [copper-64 labelled] |  | C57BL/6 mice, male, naive, white fat | 4 h | 0.3 ± 0.04 %ID/g
